Measurements from different studies.
Each line is one published result; not all experiments were run side by side. Numbers after ± are the reported error.

With CCCC[C@H](NC(=O)CNC(=O)CNC(=O)CN1CCN(CC(=O)O)CCN(CC(=O)O)CCN(CC(=O)O)CC1)C(=O)N[C@H]1CC(=O)NCCCC[C@@H](C(N)=O)NC(=O)[C@H](Cc2c[nH]c3ccccc23)NC(=O)[C@H](CCCNC(=N)N)NC(=O)[C@@H](Cc2ccccc2)NC(=O)[C@H](Cc2c[nH]cn2)NC1=O [gallium-67 labelled] the tissue uptake was 0.29 ± 0.05 %ID/g (female C57 mice, B16/F1 melanoma, blood; intravenous, 0.037 MBq, 24 h).
With CC(C)[C@H](NC(=O)[C@@H]1CCCN1C(=O)[C@H](CCCNC(=N)N)NC(=O)[C@H](CS)NC(=O)[C@H](Cc1c[nH]c2ccccc12)NC(=O)[C@H](CCCNC(=N)N)NC(=O)[C@@H](Cc1ccccc1)NC(=O)[C@H](Cc1c[nH]cn1)NC(=O)[C@H](CCC(=O)O)NC(=O)[C@H](CS)NC(=O)[C@H](CS)NC(=O)CNC(=O)[C@@H]1CC(=O)N[C@@H](CCCNC(=N)N)C(=O)NCC(=O)N[C@@H](CC(=O)O)C(=O)N[C@H](Cc2ccc(O)cc2)C(=O)N1)C(N)=O [technetium-99m labelled] the tissue uptake was 0.09 ± 0.08 %ID/g (C57 mice B16/F1 melanoma female, brain; iv, 2 h, together with: NDP-MSH 10 µg co-injected).
For O=C([O-])CN1CCN(CC(=O)[O-])CCN(CC(=O)[O-])CCN(CC(=O)[O-])CC1.[64Cu+2], the tissue uptake was 1.66 %ID/g (healthy athymic nude mice, kidney; intravenous, 1 h).
NC12CNCCNCC(NCc3ccc(CNC(=O)CCCC(=O)NCc4ccc(-c5nncnn5)cc4)cc3)(CNCCNC1)CNCCNC2.[64Cu+2] has a tissue uptake of 0.2 ± 0.04 %ID/g (athymic nude mice, SW1222 xenograft, large intestine with contents; 12 h, pretargeting with huA33-TCO, 24 h interval).
O=C([O-])c1cccc(CN(CCN(Cc2cn(Cc3ccccc3)nn2)Cc2cccc(C(=O)[O-])n2)Cc2cn(Cc3ccccc3)nn2)n1.[64Cu+2] gave a tissue uptake of 16 %ID/g (healthy athymic nude mice, liver; intravenous, 1 h).
The tissue uptake of CN1C(=O)[C@@H](Cc2ccc(O)c(I)c2)NC(=O)CNC(=O)[C@H](Cc2ccc3ccccc3c2)NC(=O)[C@H](CCCNC(=N)N)NC(=O)[C@H]1CCCNC(=O)c1ccc(CNC(=O)CN2CCN(CC(=O)O)CCN(CC(=O)O)CCN(CC(=O)O)CC2)cc1 [lutetium-177 labelled] is reported as 6.79 ± 0.68 %ID/g (refers to: 177Lu radioactivity; female CB-17 SCID mice, Daudi xenograft, tumor; intravenous, 0.16 nmol per mouse, 6 h).
The tissue uptake of CCCC[C@H](NC(=O)CNC(=O)CNC(=O)CN1CCN(CC(=O)O)CCN(CC(=O)O)CC1)C(=O)N[C@H]1CC(=O)NCCCC[C@@H](C(N)=O)NC(=O)[C@H](Cc2c[nH]c3ccccc23)NC(=O)[C@H](CCCNC(=N)N)NC(=O)[C@@H](Cc2ccccc2)NC(=O)[C@H](Cc2c[nH]cn2)NC1=O [gallium-67 labelled] is reported as 1.21 ± 0.4 %ID/g (female C57 mice, B16/F1 melanoma, stomach; intravenous, 0.037 MBq, 24 h).
The tissue uptake of N=C(N)NCCC[C@@H]1NC(=O)[C@H](CCCCNC(=O)CON=C[C@H](F)[C@@H](O)[C@H](O)[C@H](O)CO)NC(=O)[C@@H](Cc2ccc(O)cc2)NC(=O)[C@H](CC(=O)O)NC(=O)CNC1=O [fluorine-18 labelled] is reported as 0.17 ± 0.2 %ID/g (nude mice U-87 MG tumour, spleen; intravenous, 2 h).
CCCC[C@H](NC(=O)CN1CCC(NC(=O)CN2CCN(CC(=O)O)CCN(CC(=O)O)CCN(CC(=O)O)CC2)CC1)C(=O)N[C@H]1CC(=O)NCCCC[C@@H](C(N)=O)NC(=O)[C@H](Cc2c[nH]c3ccccc23)NC(=O)[C@H](CCCNC(=N)N)NC(=O)[C@@H](Cc2ccccc2)NC(=O)[C@H](Cc2c[nH]cn2)NC1=O [gallium-68 labelled] has a tissue uptake of 0.1 %ID/g (C57BL/6J mice male B16-F10 tumour, pancreas; 2 h post injection, unblocked).
With N=C(N)NCCC[C@H](NC(=O)CON=C[C@H](F)[C@@H](O)[C@H](O)[C@H](O)CO)C(=O)NCC(=O)N[C@@H](CC(=O)O)C(=O)O [fluorine-18 labelled] the tissue uptake was 0.64 ± 0.68 %ID/g (nude mice U-87 MG tumour, spleen; intravenous, 2 h).
For CCCC[C@@H]1NC(=O)[C@@H](NC(=O)[C@H](CCC(=O)O)NC(=O)CNC(=O)CN2CCN(CC(=O)O)CCN(CC(=O)O)CCN(CC(=O)O)CC2)CCCCNC(=O)C[C@@H](C(N)=O)NC(=O)[C@H](C(C)C)NC(=O)[C@@H]2CCCN2C(=O)[C@H](CCCNC(=N)N)NC(=O)CNC(=O)[C@H](Cc2c[nH]c3ccccc23)NC(=O)[C@H](CCCNC(=N)N)NC(=O)[C@@H](Cc2ccccc2)NC(=O)[C@H](Cc2c[nH]cn2)NC(=O)[C@H](CCC(=O)O)NC1=O [gallium-67 labelled], the tissue uptake was 0.02 ± 0.02 %ID/g (normal C57 mice, brain; intravenous, 0.037 MBq/mouse, 4 h).

Excerpt of the above:
With CCCC[C@H](NC(=O)CNC(=O)CNC(=O)CN1CCN(CC(=O)O)CCN(CC(=O)O)CCN(CC(=O)O)CC1)C(=O)N[C@H]1CC(=O)NCCCC[C@@H](C(N)=O)NC(=O)[C@H](Cc2c[nH]c3ccccc23)NC(=O)[C@H](CCCNC(=N)N)NC(=O)[C@@H](Cc2ccccc2)NC(=O)[C@H](Cc2c[nH]cn2)NC1=O [gallium-67 labelled] the tissue uptake was 0.29 ± 0.05 %ID/g (female C57 mice, B16/F1 melanoma, blood; intravenous, 0.037 MBq, 24 h).
With CC(C)[C@H](NC(=O)[C@@H]1CCCN1C(=O)[C@H](CCCNC(=N)N)NC(=O)[C@H](CS)NC(=O)[C@H](Cc1c[nH]c2ccccc12)NC(=O)[C@H](CCCNC(=N)N)NC(=O)[C@@H](Cc1ccccc1)NC(=O)[C@H](Cc1c[nH]cn1)NC(=O)[C@H](CCC(=O)O)NC(=O)[C@H](CS)NC(=O)[C@H](CS)NC(=O)CNC(=O)[C@@H]1CC(=O)N[C@@H](CCCNC(=N)N)C(=O)NCC(=O)N[C@@H](CC(=O)O)C(=O)N[C@H](Cc2ccc(O)cc2)C(=O)N1)C(N)=O [technetium-99m labelled] the tissue uptake was 0.09 ± 0.08 %ID/g (C57 mice B16/F1 melanoma female, brain; iv, 2 h, together with: NDP-MSH 10 µg co-injected).
